# Published values pooled from the literature.
# Organism: Staphylococcus aureus
SMILES,test,system,conditions,MIC
C#CCOc1ccc(CN[C@@]2(C)C[C@H](O[C@H]3[C@H](Oc4c5cc6cc4Oc4ccc(cc4Cl)[C@@H](O)[C@@H](NC(=O)[C@@H](CC(C)C)NC)C(=O)N[C@@H](CC(N)=O)C(=O)N[C@H]6C(=O)N[C@H]4C(=O)N[C@H](C(=O)N[C@H](C(=O)N[C@@H](CCCNC(=N)N)C(N)=O)c6cc(O)cc(O)c6-c6cc4ccc6O)[C@H](O)c4ccc(c(Cl)c4)O5)O[C@H](CO)[C@@H](O)[C@@H]3O)O[C@@H](C)[C@H]2O)cc1OC,,LIM-2 VISA,,1 µM
CC(C)C[C@@H]1NC(=O)[C@H](CCCCN)NC(=O)C(N)CCC=CCCCC(C(N)=O)NC(=O)[C@H](CCCCN)NC(=O)[C@H](CC(C)C)NC(=O)[C@H](CCCCN)NC(=O)C2CCCC=CCCC(NC(=O)[C@H](CCCCN)NC1=O)C(=O)N[C@@H](CCCCN)C(=O)N1CCC[C@@H]1C(=O)NCC(=O)N[C@@H](CCCCN)C(=O)N2 (stereo partly shown),broth microdilution,"ATCC 29737, Mueller-Hinton broth","18 h, 37 °C",128 µM
CCCC[C@H](NC(=O)[C@H](Cc1ccc(O)cc1)NC(=O)[C@@H]1CCCN1C(=O)[C@@H]1CCCN1C(=O)[C@H](CCCCN)NC(=O)[C@H](CC(=O)O)NC(=O)[C@@H](N)C(C)C)C(=O)N1CCC[C@H]1C(=O)N[C@@H](CCCNC(=N)N)C(=O)N1CCC[C@H]1C(=O)N[C@@H](CCCNC(=N)N)C(=O)N1CCC[C@H]1C(=O)N1CCC[C@H]1C(=O)N[C@@H](CCCNC(=N)N)C(=O)N[C@H](CCCNC(=N)N)C(=O)N[C@H](C(=O)N[C@@H](Cc1ccc(O)cc1)C(=O)N[C@@H](CC(N)=O)C(=O)N[C@H](CCCNC(=N)N)C(N)=O)[C@@H](C)CC,broth microdilution,DSM 6247,"18 h, 37 °C, 25% MHB2",> 128 µg/mL
CC[C@@](C)(NC)C(=O)NC(C)(C)C(=O)NC(C)(C)C(=O)NC(C)(C)C(=O)NCC(=O)NC(C)(C)C(=O)N1CCC[C@@H]1C(=O)N[C@@H](Cc1c[nH]c2ccccc12)C(=O)NC(C)(C)C(=O)N1C[C@H](O)C[C@@H]1C(=O)N[C@@H](C)C(=O)NC(C)(C)C(=O)NCCCC(=O)N[C@@H](CC(C)C)C(=O)N[C@](C)(CC)C(=O)NC(C)(C)C(=O)N[C@](C)(CC)C(=O)N[C@H](CO)Cc1ccccc1,broth microdilution,ATCC 29213,,2 µg/mL
C=C(NC(=O)c1csc(-c2nc3c(cc2O)-c2nc(cs2)C(=O)NC(C(C)O)C(=O)NC(=C(C)OC)c2nc(cs2)C(=O)NC2c4nc(cs4)C(=O)NC(COC(=O)c4c5c6c(cccc6n4O)COC(=O)C(OC4CC(C)(O)C(N(C)C)C(C)O4)C2OC5)c2nc-3cs2)n1)C(N)=O (stereo not shown),,MRSA strain 5,,0.0156 µg/mL
CC[C@H](C)[C@@H]1NC(=O)[C@H](CO)NC(=O)[C@H](CCCCN)NC(=O)[C@@H]2CSSC[C@@H](C(=O)N[C@@H](Cc3ccc(O)cc3)C(N)=O)NC(=O)[C@H](CCCCN)NC(=O)[C@@H]3CSSC[C@H](NC(=O)[C@H](CCCNC(=N)N)NC(=O)[C@H](CC(C)C)NC(=O)[C@H](CC(=O)O)NC(=O)[C@H](CC(=O)O)NC(=O)[C@H](CCC(=O)O)NC(=O)[C@H](CC(N)=O)NC(=O)[C@H](Cc4c[nH]c5ccccc45)NC(=O)C(C)(CC)NC(=O)CNC(=O)[C@H](CC(N)=O)NC(=O)[C@@H](NC(=O)CNC(=O)[C@H](Cc4ccccc4)NC(=O)CN)CSSC[C@H](NC(=O)[C@H](Cc4ccc(O)cc4)NC(=O)CNC(=O)CNC(=O)[C@H](CCCCN)NC(=O)[C@H](Cc4ccc(O)cc4)NC(=O)[C@H]4CCCN4C(=O)[C@@H]4CCCN4C1=O)C(=O)N[C@@H](C)C(=O)N[C@@H](CCCCN)C(=O)N1CCC[C@@H]1C(=O)NCC(=O)N[C@@H](Cc1ccccc1)C(=O)N[C@@H](C(C)C)C(=O)N3)C(=O)N[C@@H](Cc1c[nH]cn1)C(=O)N[C@@H](CC(N)=O)C(=O)N[C@@H](Cc1c[nH]cn1)C(=O)N2 (stereo partly shown),,"473, methicillin-resistant mecA, cation-adjusted Mueller Hinton broth","18 h, 37 °C",2 µM
CCCCCCCC[C@@H]1NC(=O)[C@@H](CCCN)NC(=O)[C@@H](NC(=O)[C@@H](NC(=O)[C@@H](CCC(=O)O)NC(=O)[C@H](CC(C)C)NC(=O)[C@@H]2CSC([C@@H](N)[C@@H](C)CC)=N2)[C@@H](C)CC)CCCCNC(=O)[C@H](CC(N)=O)NC(=O)[C@@H](CC(=O)O)NC(=O)[C@H](Cc2c[nH]cn2)NC(=O)[C@@H](Cc2ccccc2)NC1=O,broth microdilution,"ATCC 29213, LB medium",no added Zn2+,0.5 µg/mL
Cc1ccc2[nH]c3c(c2c1)CCCC3NCCc1ccc(Br)cc1 (stereo not shown),broth microdilution,USA300 JE2 MRSA,,4 µg/mL
CC(C)C[C@@H]1NC(=O)[C@@H](CC(C)C)NC(=O)[C@H](CCN)NC(=O)[C@@H](NC(=O)[C@H](CCN)NC(=O)[C@@H](NC(=O)CCOCCOCCOCCN=[N+]=[N-])[C@@H](C)O)CCNC(=O)[C@H]([C@@H](C)O)NC(=O)[C@H](CCN)NC(=O)[C@H](CCN)NC1=O,broth microdilution,"MRSA USA300, cation-adjusted Mueller-Hinton broth","20 to 24 h, 37 °C, 0.002% polysorbate 80",> 16 µg/mL
CC(C)[C@@H]1NC(=O)[C@@H](C(C)C)NC(=O)[C@H](C(C)C)NC(=O)[C@@H](C)NC(=O)[C@H](Cc2c[nH]c3ccccc23)NC(=O)[C@@H](C(C)C)NC(=O)[C@@H]2CSC1N2,,"NCTC 8325, Mueller Hinton broth","21 h, 37 °C",100 µg/mL
CC[C@H](C)[C@H](NC(=O)[C@H](C)NC(=O)[C@@H](NC(=O)[C@H](CC(=O)O)NC(=O)[C@H](CCCCN)NC(=O)[C@H](CO)NC(=O)[C@@H](NC(=O)[C@H](CC(N)=O)NC(=O)[C@H](C)NC(=O)[C@@H](NC(=O)[C@H](CCC(=O)O)NC(=O)[C@H](CCCCN)NC(=O)[C@@H](NC(=O)[C@@H](NC(=O)[C@H](Cc1c[nH]cn1)NC(=O)[C@H](CCCCN)NC(=O)[C@@H](NC(=O)[C@H](CCCCN)NC(=O)[C@H](CCCCN)NC(=O)[C@@H](NC(=O)[C@H](CC(C)C)NC(=O)[C@H](CCCCN)NC(=O)[C@H](CC(N)=O)NC(=O)[C@H](Cc1ccccc1)NC(=O)[C@H](CCCNC(=N)N)NC(=O)[C@H](CCCCN)NC(=O)[C@H](CCCNC(=N)N)NC(=O)[C@H](Cc1ccccc1)NC(=O)CN)C(C)C)C(C)C)[C@@H](C)O)[C@@H](C)CC)[C@@H](C)O)C(C)C)C(C)C)C(=O)N[C@H](C(=O)N[C@@H](C)C(=O)NCC(=O)N[C@@H](CO)C(=O)NCC(=O)N[C@H](C(=O)N[C@@H](C)C(=O)N[C@H](C(=O)NCC(=O)N[C@@H](C)C(=O)N[C@@H](C)C(=O)N[C@@H](CCSC)C(N)=O)C(C)C)C(C)C)C(C)C,broth microdilution,"ATCC 33592, CAMHB",,> 1020 µg/mL
C#CCNC(=O)[C@H]1NC(=O)[C@H]2NC(=O)[C@H](NC(=O)[C@@H]3NC(=O)[C@H](CC(N)=O)NC(=O)[C@H](NC(=O)[C@@H](CC(C)C)NC)[C@H](O)c4ccc(c(Cl)c4)Oc4cc3cc(c4O[C@@H]3O[C@H](CO)[C@@H](O)[C@H](O)[C@H]3O[C@H]3C[C@](C)(N)[C@H](O)[C@H](C)O3)Oc3ccc(cc3Cl)[C@H]2O)c2ccc(O)c(c2)-c2c(O)cc(O)cc21,,MSSA ATCC 29213,,0.336 µM
CC(C)C[C@H](NC(=O)[C@H](CC(C)C)NC(=O)[C@H](CCCCN)NC(=O)[C@H](Cc1ccccc1)NC(=O)[C@@H](NC(=O)[C@H](CCCNC(=N)N)NC(=O)[C@H](CCCCN)NC(=O)[C@H](Cc1c[nH]c2ccccc12)NC(=O)[C@@H](NC(=O)[C@@H](N)CCCNC(=N)N)C(C)C)C(C)C)C(=O)N[C@@H](CCCCN)C(=O)N[C@@H](CCCNC(=N)N)C(=O)N[C@@H](Cc1ccc(O)cc1)C(=O)N[C@@H](Cc1c[nH]c2ccccc12)C(=O)N[C@@H](CCCNC(=N)N)C(N)=O,broth microdilution,MRSA 109,,0.96 µg/mL

# Excerpt of the above:
SMILES,test,system,conditions,MIC
CC(C)C[C@H](NC(=O)[C@H](CC(C)C)NC(=O)[C@H](CCCCN)NC(=O)[C@H](Cc1ccccc1)NC(=O)[C@@H](NC(=O)[C@H](CCCNC(=N)N)NC(=O)[C@H](CCCCN)NC(=O)[C@H](Cc1c[nH]c2ccccc12)NC(=O)[C@@H](NC(=O)[C@@H](N)CCCNC(=N)N)C(C)C)C(C)C)C(=O)N[C@@H](CCCCN)C(=O)N[C@@H](CCCNC(=N)N)C(=O)N[C@@H](Cc1ccc(O)cc1)C(=O)N[C@@H](Cc1c[nH]c2ccccc12)C(=O)N[C@@H](CCCNC(=N)N)C(N)=O,broth microdilution,MRSA 109,,0.96 µg/mL
CC(C)C[C@@H]1NC(=O)[C@H](CCCCN)NC(=O)C(N)CCC=CCCCC(C(N)=O)NC(=O)[C@H](CCCCN)NC(=O)[C@H](CC(C)C)NC(=O)[C@H](CCCCN)NC(=O)C2CCCC=CCCC(NC(=O)[C@H](CCCCN)NC1=O)C(=O)N[C@@H](CCCCN)C(=O)N1CCC[C@@H]1C(=O)NCC(=O)N[C@@H](CCCCN)C(=O)N2 (stereo partly shown),broth microdilution,"ATCC 29737, Mueller-Hinton broth","18 h, 37 °C",128 µM
